# Measured values of several laboratories.
# Numbered parts are unrelated; each lists some results of a single study.

# Sample 1
# Target: Protein max, full length (MAX, Homo sapiens, UniProt P61244-2, residues 1-151)
# Method: protein-binding microarray
# Form: double-stranded DNA, one strand shown
# Medium: in vitro
# Tested at: not given
# Setting: k-mer, scored over probes, only values ≥0.25
# Reading: higher = stronger binding
Strand,E-score
CATGTTAC,0.327
CGTGCTTA,0.407
TCGTGGCA,0.355
ACGAGGCT,0.268
CTGCATGC,0.377
CCACGGGA,0.307
CCTCGCAC,0.254
CCGTGCGC,0.296

# Sample 2
# Target: Centromere-binding protein 1, full length, N-terminal tag (CBF1, Saccharomyces cerevisiae, UniProt P17106, residues 1-351)
# Sequence of UniProt P17106 (whole entry, looked up): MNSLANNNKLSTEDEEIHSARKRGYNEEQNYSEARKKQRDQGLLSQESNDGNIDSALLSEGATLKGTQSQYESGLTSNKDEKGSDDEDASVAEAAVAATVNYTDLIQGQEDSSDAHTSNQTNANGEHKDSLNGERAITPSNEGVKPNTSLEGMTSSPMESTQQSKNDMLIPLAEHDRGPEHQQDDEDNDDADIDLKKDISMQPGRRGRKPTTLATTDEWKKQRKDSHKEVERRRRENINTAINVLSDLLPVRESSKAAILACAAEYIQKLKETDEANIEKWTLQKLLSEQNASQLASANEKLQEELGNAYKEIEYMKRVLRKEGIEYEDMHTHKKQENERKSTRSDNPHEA
# Method: protein-binding microarray
# Form: double-stranded DNA, one strand shown
# Medium: in vitro
# Tested at: 0.8 µM
# Setting: whole 60-bp probe, no competitor
# Reading: higher = stronger binding
Strand,fluorescence intensity
CTAGGAAAAACAAGACATCAGGCCCGCACGTTTTTCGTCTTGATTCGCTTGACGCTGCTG,546 a.u.
CCTAACTACTATAGTCACACCATATAGCTTCGTACAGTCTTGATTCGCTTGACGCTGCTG,633 a.u.
GAAAAGACTAGCAACCACGTTTTGTTTTGTAGTTAGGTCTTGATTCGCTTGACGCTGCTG,570 a.u.
CTAGCGTTATATTTACATGTGGTATATCCGGATTTCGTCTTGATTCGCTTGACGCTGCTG,637 a.u.
CTATCCACAAGATATTGCGTGACAATTACTATTTTCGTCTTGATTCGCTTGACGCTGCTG,637 a.u.
CTAGCGCGATCCTGTCACGGAGAACTGTCCGCATTCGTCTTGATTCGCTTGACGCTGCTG,531 a.u.
GAAAACAGAAGTTAGCATGTGTGAGAGTTTACTTAGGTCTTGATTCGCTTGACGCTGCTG,537 a.u.
CTAGATTCGCAGGATGTCACGGTAACCAAAGTGTTCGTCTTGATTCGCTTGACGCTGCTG,669 a.u.

# Sample 3
# Target: Prothrombin, mature alpha-thrombin (F2, Homo sapiens, UniProt P00734)
# Method: aptamer microarray, sandwich
# Form: DNA with 2'F-ANA
# Medium: in vitro
# Tested at: 200 nM
# Setting: whole 15-mer aptamer, many near background
# Added: Cy3 exosite-II aptamer, 400 nM
# Reading: higher = stronger binding
# Strand: GGTTGGTGTGGTTGG
Modification,mean fluorescence intensity
2'F-ANA at 1 2 4 5 6 7 9 10 11 14 15,47.9 a.u.
2'F-ANA at 1 4 6 7 8 11 12 14 15,57.1 a.u.
2'F-ANA at 2 6 8 10 13,104 a.u.
2'F-ANA at 1 3 4 6 8 10 12 14,54.8 a.u.
2'F-ANA at 1 2 3 7 8 10 12 13 14 15,110 a.u.
2'F-ANA at 2 4 6 9 10 11,79.6 a.u.
2'F-ANA at 2 3 5 7 12,228 a.u.
2'F-ANA at 1 4 6 7 8 11 12 13,181 a.u.

# Mixed results
Sequence,target,effect on,form,tested at,quantity,value
KLLARFLFE,"HLA class I histocompatibility antigen, A alpha chain, allele A*80:01 (Homo sapiens, UniProt P04439)",peptide-MHC binding,peptide,concentration not given,binding,inactive
